Published values from different studies.
Protocols differ between the studies behind these lines. Numbers after ± are the reported error.
UniProt P50052, sequence (whole entry, unmodified, looked up): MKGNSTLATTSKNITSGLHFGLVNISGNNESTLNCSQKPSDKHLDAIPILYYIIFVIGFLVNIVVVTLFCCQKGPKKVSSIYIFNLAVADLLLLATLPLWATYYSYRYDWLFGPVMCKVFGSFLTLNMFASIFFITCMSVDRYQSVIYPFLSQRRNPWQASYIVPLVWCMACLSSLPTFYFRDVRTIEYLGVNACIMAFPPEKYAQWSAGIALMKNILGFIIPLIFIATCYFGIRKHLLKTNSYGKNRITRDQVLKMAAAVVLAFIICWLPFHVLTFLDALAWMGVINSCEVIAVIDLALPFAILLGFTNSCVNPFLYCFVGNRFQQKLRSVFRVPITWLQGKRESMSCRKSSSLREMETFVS

Compound | target or system | assay | test system | conditions | scale | quantity | result
CC1=C(C2=C(C)C(=O)c3c(cc(O)c(O)c3Cc3ccccc3)C2=O)C(=O)c2cc(O)c(O)c(Cc3ccccc3)c2C1=O (racemic) | BP3 human lymphoma | apoptosis, annexin V-PI staining | – | 24 h | – | EC50 | 4.87 ± 0.5 µM
[64Cu+2].c1ccc(CNCc2ccc(CN3CCCN4CCNCCCN(CC4)CC3)cc2)nc1 | CXCR4 | – | NOD/SCID mouse, U87 and U87-stb-CXCR4 xenografts, heart | iv, 480 min, ex vivo | – | tissue uptake | 1.87 ± 0.22 %ID/g
CC[C@@H](/C=C/S(C)(=O)=O)NC(=O)[C@H](COC)NC(=O)[C@H](CCc1ccccc1)NC(=O)CN1CCOCC1 | HFF, non-confluent | cell viability, CellTiter-Blue | – | 72 h | – | EC50 | 14 ± 3.58 µM
CCCC[C@H](NC(=O)[C@@H](NC(=O)[C@H](CC(=O)O)NC(=O)[C@H](CCC(N)=O)NC(=O)[C@H](CC(C)C)NC(=O)[C@H](CC(C)C)NC(=O)[C@H](CCCN)NC(=O)[C@H](CCCNC(=N)N)NC(=O)[C@H](C)NC(=O)[C@H](CO)NC(=O)[C@H](CC(C)C)NC(=O)[C@H](CCC(N)=O)NC(=O)[C@H](CC)NC(=O)[C@H](CC(C)C)NC(=O)[C@@H](NC(=O)[C@H](CCCN)NC(=O)[C@H](CCCNC(=N)N)NC(=O)[C@H](Cc1ccc(O)cc1)NC(=O)[C@H](CO)NC(=O)[C@H](CCC(N)=O)NC(=O)[C@@H](NC(=O)[C@H](Cc1ccccc1)NC(=O)[C@@H](NC(=O)[C@H](C)NC(=O)[C@H](CC(=O)O)NC(=O)[C@@H](C)NC(=O)[C@H](Cc1ccc(O)cc1)NC)[C@@H](C)CC)[C@@H](C)O)C(C)C)[C@@H](C)CC)C(=O)N[C@@H](CC(=O)O)C(=O)N[C@@H](CCCNC(=N)N)C(=O)NC | – | GH release, ELISA | male rat, anaesthetised, serum | intravenous, 1 µg/kg, 15 min | – | serum GH level | 268 ± 21.1 ng/mL
CCCC[C@H](NC(=O)CCCCCCCNC(=O)CN1CCN(CC(=O)O)CCN(CC(=O)O)CC1)C(=O)N[C@H]1CC(=O)NCCCC[C@@H](C(N)=O)NC(=O)[C@H](Cc2c[nH]c3ccccc23)NC(=O)[C@H](CCCNC(=N)N)NC(=O)[C@@H](Cc2ccccc2)NC(=O)[C@H](Cc2c[nH]cn2)NC1=O [copper-64 labelled] | – | – | C57 mice, tumor | intravenous, 0.37 MBq, 24 h | – | tissue uptake | 1.54 ± 0.16 %ID/g
Cc1ncsc1-c1ccc(CNC(=O)[C@@H]2C[C@@H](O)CN2C(=O)[C@@H](NC(=O)COCCOCCOCCNC(=O)C[C@@H]2N=C(c3ccc(Cl)cc3)c3c(sc(C)c3C)-n3c(C)nnc32)C(C)(C)C)cc1 | 22Rv1 | caspase-3/7 activation | – | 24 h | – | EC50 | 0.15 µM
CCc1nc2ccc(N(Cc3ccccc3)C(=O)c3cccs3)cc2c(=O)n1Cc1ccc(-c2ccccc2-c2nn[nH]n2)cc1 | AGTR2 (Homo sapiens, UniProt P50052, I211A) | ligand displacement, radioligand | – | cell membranes | – | Ki | 0.00933 µM
CC(C)C[C@@H](/C=C/S(C)(=O)=O)NC(=O)[C@H](CC(C)C)NC(=O)[C@H](Cc1ccc2ccccc2c1)NC(=O)CN1CCOCC1 | HFF, non-confluent | cell viability, CellTiter-Blue | – | 72 h | – | EC50 | 1.67 ± 0.26 µM
CCCCCCCCC1(CCCCCCCC)c2cc(C#Cc3cc4[n+]5c(c3)-c3cccc[n+]3[Ir-3]536([n+]5ccccc5-4)[n+]4ccccc4-c4cc(-c5ccccc5)cc([n+]43)-c3cccc[n+]36)ccc2-c2ccc(C#Cc3cc4[n+]5c(c3)-c3cccc[n+]3[Ir-3]536([n+]5ccccc5-4)[n+]4ccccc4-c4cc(-c5ccccc5)cc([n+]43)-c3cccc[n+]36)cc21.F[P-](F)(F)(F)(F)F.F[P-](F)(F)(F)(F)F.F[P-](F)(F)(F)(F)F.F[P-](F)(F)(F)(F)F.F[P-](F)(F)(F)(F)F.F[P-](F)(F)(F)(F)F | SK-MEL-28 | cell viability, resazurin | – | 16 h plus 48 h, dark | – | EC50 | 16.9 ± 0.8 µM
COC[C@H](NC(=O)[C@H](CCc1ccccc1)NC(=O)c1cnc(C)s1)C(=O)N[C@H](/C=C/S(C)(=O)=O)Cc1cccs1 | HFF, non-confluent | cell viability, CellTiter-Blue | – | 72 h | – | EC50 | 2.22 ± 0.077 µM
C#CCN(CC(=O)O[C@H]1[C@H](C)O[C@@H](O[C@H]2[C@H](N(C)C)[C@@H](O)[C@H](O[C@H]3[C@@H](CC=O)C[C@@H](C)[C@@H](O[C@H]4CC[C@H](N(C)C)[C@@H](C)O4)/C=C/C=C/C[C@@H](C)OC(=O)C[C@@H](O)[C@@H]3OC)O[C@@H]2C)C[C@@]1(C)O)C(=O)c1ccc(C(F)(F)F)cc1 | HGC-27 | annexin V/PI flow cytometry | – | 0.9 µM | – | apoptotic cells | 70.9%
CC(C)C[C@@H](/C=C/S(C)(=O)=O)NC(=O)[C@H](CC(C)C)NC(=O)[C@H](CCc1ccccc1)NC(=O)CN1CCOCC1 | HFF, non-confluent | cell viability, CellTiter-Blue | – | 1 h | – | EC50 | 75.7 ± 12.7 µM
CCCc1nc2ccc(N(Cc3ccco3)C(=O)c3ccccc3)cc2c(=O)n1Cc1ccc(-c2ccccc2-c2nnn[nH]2)cc1 | AGTR2 (Homo sapiens, UniProt P50052, M214A) | ligand displacement, radioligand | – | cell membranes | – | Ki | 0.00398 µM
O=Cc1c(O)ccc2ccccc12 | HUVEC | RNA sequencing, measured: VIP | – | 75 µM, 24 h | baseline: DMSO | log2 fold change | 2.77
C=CC(=O)Nc1cc(-c2nn(C3CCN(CCNC(=O)[C@H](C)CCC45CC6CC(CC(C6)C4)C5)CC3)c3ncnc(N)c23)ccc1Oc1ccccc1 | HER3-dependent cell lines | cell death | – | – | – | EC50 | 0.8 to 1.4 µM
CC1=C/C(=N\N=C(/S)Nc2cccnc2)CC(C)(C)C1 | LDR | silenced GFP reporter derepression, microscopy | – | overnight | – | EC50 | 3 µM
CCCCC/C=C/C(=O)CCc1ccc(O)c(OC)c1 | mAb 5-D8 | antibody binding, indirect competitive ELISA | – | together with: coating antigen hapten 2-OVA | – | IC50 | > 4 µg/mL
O=C1NCCN1C[C@H](O)Cn1c2ccc(F)cc2c2cc(F)ccc21 | IMR-90 | cell growth or viability | – | 72 h | – | EC50 | 60.8 µM
Cc1ccc(/C=N/N=C(\S)Nc2cccc(S(=O)(=O)N(C)C)c2)o1 | LDR | silenced GFP reporter derepression, microscopy | – | overnight | – | EC50 | 14 µM

Compound | target or system | assay | test system | conditions | scale | quantity | result
COC[C@H](NC(=O)[C@H](CCc1ccccc1)NC(=O)CN1CCOCC1)C(=O)N[C@H](/C=C/S(C)(=O)=O)CC(C)C | HFF, non-confluent | cell viability, CellTiter-Blue | – | 72 h | – | EC50 | 13.4 ± 4.41 µM
O=C(CSc1cccc[n+]1[O-])c1ccccc1Br | LDR | silenced GFP reporter derepression, microscopy | – | overnight | – | EC50 | 28 µM
NC(COc1cc(C(F)(F)F)cc(C(F)(F)F)c1)c1ccccc1 (stereo not shown) | normal hiPSC cardiomyocytes | APD75 prolongation, kinetic imaging cytometry | – | – | – | EC50 | > 200 µM
Cc1cc2cc(O)c(O)cc2c(O)c1-c1c(C)cc2cc(O)c(O)cc2c1O | H1299 | cell viability, ATP luminescence | – | 72 h | – | EC50 | 13.4 µM
Cc1ccc(CC(=O)N(CCCn2ccnc2)c2nc3ccccc3s2)c(C)c1 | SW620 organoids | E-cadherin reporter | – | 2-fold induction | – | EC50 | 8.3 µM
NS(=O)(=O)Nc1ncnc(OCCOc2ncc(Br)cn2)c1-c1ccc(Br)cc1 | – | metabolite formation | female Sprague-Dawley rat, liver microsomes | 450 mg/kg daily for 4 weeks | – | Vmax | 345 ± 18 pmol/min/mg
COC[C@H](NC(=O)[C@H](CCc1ccccc1)NC(=O)CN1CCOCC1)C(=O)N[C@H](/C=C/S(C)(=O)=O)Cc1cccs1 | HFF, non-confluent | cell viability, CellTiter-Blue | – | 1 h | – | EC50 | > 250 µM
CCN(CC)CCCNC(=O)CSc1c2c(nc3cc(Cl)ccc13)CCCC2 | LDR | silenced GFP reporter derepression, microscopy | – | overnight | – | EC50 | 10 µM
C#CC[C@@H](/C=C/S(C)(=O)=O)NC(=O)[C@H](COC)NC(=O)[C@H](CCc1ccccc1)NC(=O)CN1CCOCC1 | HFF, non-confluent | cell viability, CellTiter-Blue | – | 1 h | – | EC50 | > 250 µM
CCCCCCCCC1(CCCCCCCC)c2cc(-c3cc4[n+]5c(c3)-c3cccc[n+]3[Ir-3]536([c]5ccccc5-c5cc(-c7ccccc7)cc([n+]53)-c3cccc[c]36)[n+]3ccccc3-4)ccc2-c2ccc(-c3cc4[n+]5c(c3)-c3cccc[n+]3[Ir-3]536([c]5ccccc5-c5cc(-c7ccccc7)cc([n+]53)-c3cccc[c]36)[n+]3ccccc3-4)cc21.F[P-](F)(F)(F)(F)F.F[P-](F)(F)(F)(F)F | SK-MEL-28 | cell viability, resazurin | – | 16 h before light, visible light 100 J/cm2 | – | EC50 | 1.05 ± 0.01 µM
CCC(=O)N1CCN(c2ccc(NC(=O)c3ccc([N+](=O)[O-])o3)cc2Cl)CC1 | LDR | silenced GFP reporter derepression, microscopy | – | overnight | – | EC50 | 2 µM
Cc1cc(C)cc(OCC(N)c2ccccc2)c1 (stereo not shown) | normal hiPSC cardiomyocytes | APD75 prolongation, kinetic imaging cytometry | – | – | – | EC50 | > 200 µM
COc1nc(Nc2nc(O)c3ccccc3n2)nc2ccc(C)cc12 | LDR | silenced GFP reporter derepression, microscopy | – | overnight | – | EC50 | 8 µM
COc1cc(CCC(C)=O)ccc1O | mAb 5-D8 | antibody binding, indirect competitive ELISA | – | together with: coating antigen hapten 2-OVA | – | IC50 | > 4 µg/mL
C(=N\Nc1nc(-c2ccccn2)nc2ccccc12)/c1ccccc1 | LDR | silenced GFP reporter derepression, microscopy | – | overnight | – | EC50 | 20 µM
O=C1CC(=O)N(CCc2ccccc2)C(=O)N1CCc1ccccc1 | PC12 SOD1 G93A-YFP | protection from cytotoxicity | – | – | – | EC50 | 1.05 µM
COc1ccc(NC(=O)CSc2nc3c(oc4ccccc43)c(=O)n2Cc2ccco2)cc1Cl | LDR | silenced GFP reporter derepression, microscopy | – | overnight | – | EC50 | 13 µM
CCCCCCCCC1(CCCCCCCC)c2cc(-c3cc4[n+]5c(c3)-c3cccc[n+]3[Ir-3]536([n+]5ccccc5-c5cc(-c7ccccc7)cc([n+]53)-c3cccc[n+]36)[n+]3ccccc3-4)ccc2-c2ccc(-c3cc4[n+]5c(c3)-c3cccc[n+]3[Ir-3]536([n+]5ccccc5-c5cc(-c7ccccc7)cc([n+]53)-c3cccc[n+]36)[n+]3ccccc3-4)cc21.F[P-](F)(F)(F)(F)F.F[P-](F)(F)(F)(F)F.F[P-](F)(F)(F)(F)F.F[P-](F)(F)(F)(F)F.F[P-](F)(F)(F)(F)F.F[P-](F)(F)(F)(F)F | SK-MEL-28 | cell viability, resazurin | – | 16 h plus 48 h, dark | – | EC50 | 82.6 ± 1.5 µM

Some of these lines once more:
Compound | target or system | assay | test system | conditions | scale | quantity | result
O=C1CC(=O)N(CCc2ccccc2)C(=O)N1CCc1ccccc1 | PC12 SOD1 G93A-YFP | protection from cytotoxicity | – | – | – | EC50 | 1.05 µM
CCCCCCCCC1(CCCCCCCC)c2cc(-c3cc4[n+]5c(c3)-c3cccc[n+]3[Ir-3]536([n+]5ccccc5-c5cc(-c7ccccc7)cc([n+]53)-c3cccc[n+]36)[n+]3ccccc3-4)ccc2-c2ccc(-c3cc4[n+]5c(c3)-c3cccc[n+]3[Ir-3]536([n+]5ccccc5-c5cc(-c7ccccc7)cc([n+]53)-c3cccc[n+]36)[n+]3ccccc3-4)cc21.F[P-](F)(F)(F)(F)F.F[P-](F)(F)(F)(F)F.F[P-](F)(F)(F)(F)F.F[P-](F)(F)(F)(F)F.F[P-](F)(F)(F)(F)F.F[P-](F)(F)(F)(F)F | SK-MEL-28 | cell viability, resazurin | – | 16 h plus 48 h, dark | – | EC50 | 82.6 ± 1.5 µM
O=Cc1c(O)ccc2ccccc12 | HUVEC | RNA sequencing, measured: VIP | – | 75 µM, 24 h | baseline: DMSO | log2 fold change | 2.77
Cc1cc(C)cc(OCC(N)c2ccccc2)c1 (stereo not shown) | normal hiPSC cardiomyocytes | APD75 prolongation, kinetic imaging cytometry | – | – | – | EC50 | > 200 µM
